Published values from different studies.
Parts stem from different laboratories: compare values within a part only.

Sample 1
Target: human cyclin A2
Read-out: peptide binding
Technique: competitive growth sequencing
Form: peptide
Organism: Saccharomyces cerevisiae
Strain: cyclin A2-Cln2 fusion strain
Tested at: concentration not given
Setting: peptide tiling library
Baseline: unfused Cln2 strain
Reading: direction not given
| Sequence | binding score |
| --- | --- |
| RRRIKLPESDSSED | 0.136 |
| GRLPAKAKADLEGIGR | -0.518 |
| KPCHRRVLCFDSTTAP | 0.195 |
| SVKQAGPAFEHASNND | 0.226 |
| KVKRRLDLDIDGLQKE | 1.79 |
| SSPSVRAQAFVTVVKT | -0.143 |
| SHTLKGARAVFDNQLT | -0.219 |

Sample 2
Target: Prothrombin, mature alpha-thrombin (F2, Homo sapiens, UniProt P00734)
Technique: aptamer microarray, sandwich
Form: DNA with 2'F-ANA
Matrix: in vitro
Tested at: 200 nM
Setting: whole 15-mer aptamer, many near background
With: Cy3 exosite-II aptamer, 400 nM
Reading: higher = stronger binding
Strand: GGTTGGTGTGGTTGG
| Modification | mean fluorescence intensity |
| --- | --- |
| 2'F-ANA at 1 2 6 8 9 10 12 13 15 | 65.4 a.u. |
| 2'F-ANA at 1 2 5 9 10 12 14 15 | 50.8 a.u. |
| 2'F-ANA at 1 3 4 5 11 | 54.1 a.u. |
| 2'F-ANA at 1 2 5 6 7 9 11 15 | 56.5 a.u. |
| 2'F-ANA at 1 3 5 6 7 8 10 11 15 | 49.8 a.u. |
| 2'F-ANA at 2 4 7 8 13 14 15 | 134 a.u. |

Sample 3
Target: Sal-like protein 4, full length isoform B (SALL4, Homo sapiens, UniProt Q9UJQ4-2, residues 1-616)
Technique: universal PBM
Form: double-stranded DNA, one strand shown
Matrix: in vitro
Tested at: not given
Setting: 8-mer, flanks averaged, mean of replicates
Reading: higher = stronger binding
| Strand | E-score |
| --- | --- |
| GCATCGGC | -0.294 |
| GGAAGGAC | -0.0112 |
| ACGATGAT | 0.1 |
| AGGAGACA | 0.0226 |
| ATCTCCGG | -0.0312 |
| ATGGGGGA | 0.00472 |
| AAATCCAC | 0.037 |

Other studies, line by line
| Molecule | target | assay | system | conditions | how to read | quantity | result |
| --- | --- | --- | --- | --- | --- | --- | --- |
| PhoQ, residues 284 288 289 292 302 303 TLASMF | PhoP, residues 12 14 15 18 19 SQCLL (Escherichia coli, UniProt P23836) | Sort-seq, measured: YFP reporter | E. coli | PhoQ-PhoP variant library, with: 10 µM Mg2+ | baseline: high Mg2+ state, higher = stronger signaling | fold induction | 2.17 |

For quick reference, copied from above (sample 1):
| Sequence | binding score |
| --- | --- |
| SVKQAGPAFEHASNND | 0.226 |
| KVKRRLDLDIDGLQKE | 1.79 |
